Results gathered from unrelated publications.
Compare with care: the assays were run in different laboratories.
Cell line: DU-145

Structure (SMILES) | test | test system | setting | endpoint | value
COc1cc(CCC[P+](c2ccccc2)(c2ccccc2)c2ccccc2)c(OC)c2c1OCO2.[I-] | SRB | – | – | GI50 | -5.49 log M
CCN(CC)c1ccc(C=NNC(=O)CSc2nc3ccccc3c(=O)n2Cc2ccc(S(N)(=O)=O)cc2)c(O)c1 | NCI five-dose screen | – | – | CC50 | > 100 µM
CN1CCN(C2(CNC3CCN(c4cccc(-c5cc6cc(F)ccc6[nH]5)c4)CC3)CCC2)CC1 | – | – | – | GI50 | 1.57 µM
COc1c(CCC[P+](c2ccccc2)(c2ccccc2)c2ccccc2)cc2c(c1OC)OCO2.[I-] | SRB | – | – | TGI | > -4 log M
Nc1ncc(-c2nc(N3CCOCC3)nc(N3CCOCC3)n2)c(C(F)F)n1 | – | – | 72 h | GI50 | 0.059 µM
COc1c(C)c2c(c(O)c1C/C=C(\C)CCC(=O)O)C(=O)OC2 | cell proliferation | prostate cancer | – | IC50 | 0.631 µM
Cn1cncc1C1=CN(c2ncnc3[nH]cnc23)CCS1 | – | – | prostate cancer | CC50 | > 200 µM
COc1ccc2c(c1)[nH]c1c(C)nccc12 | bisulfite pyrosequencing, measured: RASSF1A promoter CpG site 23 | – | 10 µM, 16 h | DNA methylation | 92.9%
CC(C)N1CCC(NC2CCN(c3cccc(-c4cc5cc(F)ccc5[nH]4)c3)CC2)CC1 | – | – | – | GI50 | 1.72 µM

Some of these lines once more:
Structure (SMILES) | test | test system | setting | endpoint | value
COc1c(CCC[P+](c2ccccc2)(c2ccccc2)c2ccccc2)cc2c(c1OC)OCO2.[I-] | SRB | – | – | TGI | > -4 log M
